Published values pooled from the literature.
Protocols differ between the studies behind these lines. ± gives the spread as reported.
UniProt P14868, sequence (whole entry, looked up): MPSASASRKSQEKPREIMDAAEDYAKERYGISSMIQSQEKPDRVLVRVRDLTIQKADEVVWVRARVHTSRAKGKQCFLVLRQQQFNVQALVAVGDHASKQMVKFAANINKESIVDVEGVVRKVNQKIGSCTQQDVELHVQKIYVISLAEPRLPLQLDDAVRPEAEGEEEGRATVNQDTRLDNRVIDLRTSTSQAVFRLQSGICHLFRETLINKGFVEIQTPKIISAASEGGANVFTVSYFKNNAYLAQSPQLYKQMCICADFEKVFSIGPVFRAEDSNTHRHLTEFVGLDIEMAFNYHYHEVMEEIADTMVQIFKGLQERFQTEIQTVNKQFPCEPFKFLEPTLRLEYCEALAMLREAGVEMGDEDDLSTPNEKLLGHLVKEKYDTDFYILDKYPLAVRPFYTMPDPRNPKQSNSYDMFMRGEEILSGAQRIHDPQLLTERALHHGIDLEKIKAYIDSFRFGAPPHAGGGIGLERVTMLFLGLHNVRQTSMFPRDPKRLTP
UniProt P08069, sequence (whole entry, looked up): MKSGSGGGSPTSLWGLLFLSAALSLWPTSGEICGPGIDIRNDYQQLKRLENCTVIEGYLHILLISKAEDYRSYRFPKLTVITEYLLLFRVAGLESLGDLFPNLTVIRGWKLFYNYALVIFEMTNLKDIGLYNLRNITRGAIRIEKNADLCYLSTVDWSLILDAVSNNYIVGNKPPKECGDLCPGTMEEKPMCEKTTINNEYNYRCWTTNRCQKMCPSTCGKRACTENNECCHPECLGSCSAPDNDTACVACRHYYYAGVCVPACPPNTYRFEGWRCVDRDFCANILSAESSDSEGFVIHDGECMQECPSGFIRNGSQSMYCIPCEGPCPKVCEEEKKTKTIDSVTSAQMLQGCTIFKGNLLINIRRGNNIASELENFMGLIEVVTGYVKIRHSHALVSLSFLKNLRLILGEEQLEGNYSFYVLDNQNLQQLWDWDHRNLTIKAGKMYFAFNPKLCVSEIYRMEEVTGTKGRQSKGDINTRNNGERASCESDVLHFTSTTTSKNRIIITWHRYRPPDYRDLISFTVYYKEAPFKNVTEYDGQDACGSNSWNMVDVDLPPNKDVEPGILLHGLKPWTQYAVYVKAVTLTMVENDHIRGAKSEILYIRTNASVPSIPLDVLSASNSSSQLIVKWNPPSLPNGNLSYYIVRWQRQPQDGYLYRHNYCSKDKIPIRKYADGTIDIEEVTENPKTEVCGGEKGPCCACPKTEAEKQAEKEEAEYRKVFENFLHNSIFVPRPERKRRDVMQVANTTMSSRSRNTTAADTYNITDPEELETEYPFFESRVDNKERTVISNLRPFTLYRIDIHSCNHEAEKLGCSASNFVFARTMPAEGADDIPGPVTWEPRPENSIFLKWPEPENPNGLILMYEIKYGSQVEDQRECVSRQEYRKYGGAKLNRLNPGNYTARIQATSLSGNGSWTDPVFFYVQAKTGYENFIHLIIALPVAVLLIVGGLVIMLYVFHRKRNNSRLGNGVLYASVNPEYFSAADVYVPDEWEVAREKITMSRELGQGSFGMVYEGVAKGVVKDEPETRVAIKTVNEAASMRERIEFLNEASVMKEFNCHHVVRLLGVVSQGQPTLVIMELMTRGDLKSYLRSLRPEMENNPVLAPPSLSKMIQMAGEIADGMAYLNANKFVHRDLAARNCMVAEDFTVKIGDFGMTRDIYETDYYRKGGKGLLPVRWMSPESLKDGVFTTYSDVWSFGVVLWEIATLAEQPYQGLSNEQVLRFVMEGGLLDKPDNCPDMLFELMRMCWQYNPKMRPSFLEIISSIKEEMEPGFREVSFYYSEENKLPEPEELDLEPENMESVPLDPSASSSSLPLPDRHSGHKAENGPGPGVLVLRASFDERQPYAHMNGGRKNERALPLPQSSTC
UniProt P35346, sequence (whole entry, looked up): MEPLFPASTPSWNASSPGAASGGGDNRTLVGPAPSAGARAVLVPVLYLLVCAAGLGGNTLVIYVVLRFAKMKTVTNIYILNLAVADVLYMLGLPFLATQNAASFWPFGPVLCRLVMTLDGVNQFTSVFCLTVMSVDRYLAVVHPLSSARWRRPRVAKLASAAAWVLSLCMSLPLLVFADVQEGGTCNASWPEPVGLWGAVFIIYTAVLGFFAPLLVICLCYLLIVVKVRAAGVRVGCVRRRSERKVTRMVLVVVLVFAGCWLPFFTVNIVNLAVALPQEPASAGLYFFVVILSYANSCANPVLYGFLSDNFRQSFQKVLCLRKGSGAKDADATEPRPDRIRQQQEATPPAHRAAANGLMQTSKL

COc1cc(Nc2ncc(F)c(Nc3ccc4c(n3)NC(=O)C(C)(C)O4)n2)cc(OC)c1OC — IC50 (SSTR5 (Homo sapiens, UniProt P35346)): > 10 µM
C[C@H]1CN(c2n[nH]c3nc(N[C@H]4CC[C@H](NS(=O)(=O)CCC(F)(F)F)CC4)ncc23)CCO1 — remaining binding (DARS1 (Homo sapiens, UniProt P14868); Kinobeads competition, refers to: DARS; 0.16 µM, unit not given; baseline: vehicle): 0.96
CCCCCCCCCC(=O)N[C@@H](Cc1c[nH]c2ccccc12)C(=O)N[C@H](CC(N)=O)C(=O)N[C@@H](CC(=O)O)C(=O)N[C@@H]1C(=O)NCC(=O)N[C@@H](CCCNC(=O)CCC(=O)N2Cc3ccccc3-c3c(nnn3CCC[C@H](NC(=O)CCCCC[N+]3=C(C=CC4=CC(=CC=C5N(C)c6ccccc6C5(C)C)CCC4)C(C)(C)c4ccccc43)C(=O)NCCCCNC(=O)CCC(=O)N3Cc4ccccc4C#Cc4ccccc43)-c3ccccc32)C(=O)N[C@@H](CC(=O)O)C(=O)N[C@H](C)C(=O)N[C@@H](CC(=O)O)C(=O)NCC(=O)N[C@H](CO)C(=O)N[C@@H]([C@H](C)CC(=O)O)C(=O)N[C@@H](CC(=O)c2ccccc2N)C(=O)O[C@@H]1C — half-life (mouse plasma; 1 µM, up to 240 min, pH 7.4, 37 °C): > 4 h
C[C@@H](O)[C@@H](CO)NC(=O)[C@@H](CCCNC(=N)N)NC(=O)[C@@H]1CCCN1C(=O)[C@@H]1CSSC[C@H](NC(=O)[C@H](Cc2ccccc2)NC(=O)CN2CCN(CC(=O)O)CCN(CC(=O)O)CCN(CC(=O)O)CC2)C(=O)N[C@@H](Cc2ccc(O)cc2)C(=O)N[C@@H](Cc2ccccc2)C(=O)N[C@@H](CCC(N)=O)C(=O)N[C@@H](CC(N)=O)C(=O)N1 [gallium-68 labelled] — tissue uptake (Wistar rat, pancreas; intravenous, 8 MBq, 30 min, group mean): 0.32 %ID/g
CC[C@H](C)[C@H](NC(=O)[C@H](Cc1ccccc1)NC(=O)[C@H](CCC(=O)O)NC(=O)[C@H](CCCNC(=N)N)NC(=O)[C@H](C)NC(=O)[C@H](C)NC(=O)[C@H](CCC(N)=O)NC(=O)[C@H](CCC(=O)O)NC(=O)[C@H](CCC(=O)O)NC(=O)[C@H](CC(C)C)NC(=O)[C@H](Cc1ccc(O)cc1)NC(=O)[C@H](CO)NC(=O)[C@H](CO)NC(=O)[C@@H](NC(=O)[C@H](CC(=O)O)NC(=O)[C@H](CO)NC(=O)[C@@H](NC(=O)[C@H](Cc1ccccc1)NC(=O)[C@@H](NC(=O)CNC(=O)[C@H](CCC(=O)O)NC(=O)[C@H](C)NC(=O)CCc1c[nH]cn1)[C@@H](C)O)[C@@H](C)O)C(C)C)C(=O)N[C@@H](C)C(=O)N[C@@H](Cc1c[nH]c2ccccc12)C(=O)N[C@@H](CC(C)C)C(=O)N[C@H](C(=O)N[C@@H](CCCNC(=N)N)C(=O)NCC(=O)N[C@@H](CCCNC(=N)N)C(=O)N[C@@H](CCCCNC(=O)COCCOCCNC(=O)COCCOCCNC(=O)CC[C@H](NC(=O)CCCCCCCCCCCCCCCCC(=O)O)C(=O)O)C(=O)NCC(=O)NCC(=O)N[C@@H](CO)C(=O)N[C@@H](CCCCNc1c(NCCCCCN(O)C(=O)CCC(=O)NCCCCCN(O)C(=O)CCC(=O)NCCCCCN(O)C(C)=O)c(=O)c1=O)C(=O)O)C(C)C [zirconium-89 labelled] — tissue uptake (rat, kidney; iv, 3 nmol/kg, 72 h, ex vivo): 8.56 %ID/g
CC(C)[C@@H]1NC(=O)[C@H](Cc2ccccc2)NC(=O)[C@@H]2NC(=O)[C@H](Cc3ccccc3)NC(=O)[C@@H]3CCCN3C(=O)CNC(=O)[C@H](Cc3ccccc3)NC(=O)[C@@H]3CNCCCC[C@@H](C(=O)O)NC(=O)[C@@H]4NC(=O)[C@H](CC(N)=O)NC(=O)CNC(=O)[C@H]([C@@H](O)C(=O)O)NC(=O)[C@H](CSC[C@@H](NC(=O)[C@H](CCC(N)=O)NC(=O)[C@H](CCCCNC(=O)c5ccc(NN)nc5)NC(=O)[C@@H](N)CS[C@H]4C)C(=O)N[C@@H](CS[C@H]2C)C(=O)N3)NC1=O [technetium-99m labelled] — tissue uptake (rat, saline control, kidneys; intravenous, 2 h after tracer, tracer 2 h after reperfusion): 8.17 ± 1.8 %ID/g
COc1ccc(N2C(=O)N(c3c(C)cccc3Cl)Cc3cnc(Nc4ccc(C5CCN(C)CC5)cc4OC)nc32)nc1 — inhibition (IGF1R (Homo sapiens, UniProt P08069); kinase activity; 0.5 µM): 18%
CC[C@H](C)[C@@H]([C@@H](CC(=O)N1CCC[C@H]1[C@H](OC)[C@@H](C)C(=O)N[C@H](C)[C@@H](O)c1ccccc1)OC)N(C)C(=O)[C@@H](NC(=O)[C@H](C(C)C)N(C)C(=O)OCc1ccc(NC(=O)[C@H](CCCNC(=N)N)NC(=O)[C@@H](NC(=O)CCCCCN2C(=O)CC(SC[C@H](NC(=O)[C@H](CC(=O)O)NC(=O)[C@H](CCCNC(=N)N)NC(=O)[C@H](CC(=O)O)NC(=O)CCCCn3cc(CCCC(=O)Nc4nnc(S(N)(=O)=O)s4)nn3)C(=O)O)C2=O)C(C)C)cc1)C(C)C (stereo partly shown) — half-life (LC-MS, refers to: intact conjugate; mouse serum; 100 µg/mL, 37 °C): 1.8 h
COc1cccc2c1C(=O)c1c(O)c3c(c(O)c1C2=O)C[C@@](O)(C(=O)CO)C[C@@H]3O[C@H]1C[C@H](NC(=O)[C@@H]2CCCN2C(=O)CNC(=O)[C@H](CC(C)C)NC(=O)[C@H](C)NC(=O)CP(=O)(O)O)[C@H](O)[C@H](C)O1 — AUC (healthy mice, plasma; intravenous, 94.4 mg/kg): 115 µM·h
O=C(O)C[C@H](NC(=O)[C@H](CC(=O)O)NC(=O)[C@H](CC(=O)O)NC(=O)[C@H](CC(=O)O)NC(=O)[C@H](CC(=O)O)NC(=O)[C@H](CC(=O)O)NC(=O)[C@H](CC(=O)O)NC(=O)[C@H](CC(=O)O)NC(=O)[C@H](CC(=O)O)NC(=O)[C@H](CC(=O)O)NC(=O)[C@H](CC(=O)O)NC(=O)[C@H](CCCCNC(=O)c1ccc(C(=O)NCCOCCOB2BBBBBB3BBBB3B2)cc1)NC(=O)CN1CCN(CC(=O)O)CCN(CC(=O)O)CCN(CC(=O)O)CC1)C(=O)O [gallium-67 labelled] — tissue uptake (ddY male mice, heart; intravenous, 37 kBq, 3 h): 0.05 %ID/g
N=C(N)NCCC[C@@H]1NC(=O)[C@H](CCCCNC(=O)c2ccc(CNC34CNCCNCC(N)(CNCCNC3)CNCCNC4)cc2)NC(=O)[C@@H](Cc2ccc(O)cc2)NC(=O)[C@H](CC(=O)O)NC(=O)CNC1=O [copper-64 labelled] — tissue uptake (ex vivo biodistribution; male athymic nude mouse, PC-3 tumour, muscle; 7.4 MBq, 48 h): 0.34 ± 0.07 %ID/g
CC[C@H](C)[C@@H]1NC(=O)[C@@H]2CCCN2C(=O)[C@H](CC(C)C)NC(=O)[C@H](CC(C)C)NC(=O)CNC(=O)[C@@H](NC(=O)[C@@H](NC(=O)[C@H](CC(=O)O)NC(=O)CNC(=O)[C@@H](NC(=O)[C@H](C)NC(=O)CNC(=O)[C@H](CCCCN)NC(=O)[C@H](CC(C)C)NC(=O)[C@H](CC(C)C)NC(=O)[C@H](CCCCN)NC(=O)CNC(=O)[C@@H](NC(=O)[C@@H](N)CC(C)C)C(C)C)C(C)C)C(C)C)CSSC[C@@H](C(=O)O)NC1=O — log2 fold change (RNA-seq, refers to: Crispld2; mouse, traumatic brain injury model, frontal cortex and hippocampus; dose not given; baseline: TBI alone): -1.99
CC(C)C[C@H](NC(=O)C[C@H](O)[C@H](CC(C)C)NC(=O)[C@H](Cc1c[nH]cn1)NC(=O)CNC(=O)[C@@H](NC(=O)[C@H](C)NC(=O)[C@H](Cc1c[nH]c2ccccc12)NC(=O)[C@H](CCC(N)=O)NC(=O)[C@@H](Cc1ccccc1)NC(=O)CCNC(=O)CCSc1nnc(NCCC(=O)NCCC(=O)NCCCC[C@H](NC(=O)N[C@@H](CCC(=O)O)C(=O)O)C(=O)O)c2c1CCC1C(CC2)C1COC(=O)NCCNC(=O)CC[C@H](C(=O)O)N1CCN(CC(=O)O)CCN(CC(=O)O)CC1)C(C)C)C(N)=O (stereo partly shown) [gallium-68 labelled] — tissue uptake (athymic NMRI nude mouse, pancreas; intravenous, 533 pmol, 2 h): 1.34 %ID/g

For quick reference, copied from above:
CC[C@H](C)[C@@H]1NC(=O)[C@@H]2CCCN2C(=O)[C@H](CC(C)C)NC(=O)[C@H](CC(C)C)NC(=O)CNC(=O)[C@@H](NC(=O)[C@@H](NC(=O)[C@H](CC(=O)O)NC(=O)CNC(=O)[C@@H](NC(=O)[C@H](C)NC(=O)CNC(=O)[C@H](CCCCN)NC(=O)[C@H](CC(C)C)NC(=O)[C@H](CC(C)C)NC(=O)[C@H](CCCCN)NC(=O)CNC(=O)[C@@H](NC(=O)[C@@H](N)CC(C)C)C(C)C)C(C)C)C(C)C)CSSC[C@@H](C(=O)O)NC1=O — log2 fold change (RNA-seq, refers to: Crispld2; mouse, traumatic brain injury model, frontal cortex and hippocampus; dose not given; baseline: TBI alone): -1.99
N=C(N)NCCC[C@@H]1NC(=O)[C@H](CCCCNC(=O)c2ccc(CNC34CNCCNCC(N)(CNCCNC3)CNCCNC4)cc2)NC(=O)[C@@H](Cc2ccc(O)cc2)NC(=O)[C@H](CC(=O)O)NC(=O)CNC1=O [copper-64 labelled] — tissue uptake (ex vivo biodistribution; male athymic nude mouse, PC-3 tumour, muscle; 7.4 MBq, 48 h): 0.34 ± 0.07 %ID/g
